Experimental data of several laboratories.
Each numbered part is a random draw from the data of one study; scales do not carry over between parts.

Block 1 — technique: universal PBM; form: double-stranded DNA, one strand shown; medium: in vitro; concentration: not given; reading: higher = stronger binding
Target: Sal-like protein 4, full length isoform B (SALL4, Homo sapiens, UniProt Q9UJQ4-2, residues 1-616)
Notes: 8-mer, flanks averaged, mean of replicates
Target sequence (chain): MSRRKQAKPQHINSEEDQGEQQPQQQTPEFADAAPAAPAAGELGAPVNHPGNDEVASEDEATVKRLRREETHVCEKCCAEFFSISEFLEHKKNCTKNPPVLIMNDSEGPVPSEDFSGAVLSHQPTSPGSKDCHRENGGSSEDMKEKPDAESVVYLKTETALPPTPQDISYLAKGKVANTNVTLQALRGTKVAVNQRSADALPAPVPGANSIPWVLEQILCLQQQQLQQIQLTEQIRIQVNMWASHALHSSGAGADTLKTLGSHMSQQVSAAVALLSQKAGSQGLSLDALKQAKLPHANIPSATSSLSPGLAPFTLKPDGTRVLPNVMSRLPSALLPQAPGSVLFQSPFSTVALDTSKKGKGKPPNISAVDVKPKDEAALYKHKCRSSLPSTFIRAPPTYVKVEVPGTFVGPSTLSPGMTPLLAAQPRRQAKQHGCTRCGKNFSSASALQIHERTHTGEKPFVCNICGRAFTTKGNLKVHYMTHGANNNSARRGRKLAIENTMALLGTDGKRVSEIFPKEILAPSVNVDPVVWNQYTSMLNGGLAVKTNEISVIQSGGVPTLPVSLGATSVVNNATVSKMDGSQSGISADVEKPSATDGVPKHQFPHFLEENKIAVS
Oligonucleotide | E-score
ATGTTGAA | 0.201
AGCCGTTC | -0.331
CGAGGGTA | -0.137
ATTGTCAA | 0.165
GCGTGCTA | -0.115
CGCTCAAA | -0.163
CCAGATCC | -0.371
ATTTATAA | 0.379
CCAGTCAA | -0.118
GGGGAATA | 0.113
AAGTTGCA | 0.0609
ATTGGGAA | 0.0949
GCAGAAAA | 0.0517
AGCAACGG | -0.113
AGGCAATA | 0.182
AGGAGCTC | -0.184
ACTACCGA | -0.144
AGCTCCAA | -0.0243
GAGGGGGA | -0.223
CCGCATTA | 0.0989
CGCCGATA | -0.116
GACTTGAC | -0.0521
ATGGGGAG | -0.103
AGGCTAAT | 0.106
CTCTGCAC | -0.146

Block 2 — technique: RNA Bind-n-Seq; form: RNA; medium: in vitro; concentration: 365 nM; relative to: no-protein control; reading: higher = stronger binding
Target: RNA binding protein fox-1 homolog 2, RRM domain, GST-SBP tag (RBFOX2, Homo sapiens, UniProt O43251-10, residues 100-194)
Notes: natural RNA segment, single round, ends assumed
Target sequence (chain): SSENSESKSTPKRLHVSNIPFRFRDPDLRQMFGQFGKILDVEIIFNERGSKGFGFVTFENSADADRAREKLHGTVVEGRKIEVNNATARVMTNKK
Oligonucleotide | RBNS enrichment (R)
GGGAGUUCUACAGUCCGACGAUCUUUGAGUGUAAAGACUCACAGGUGACCUGCUAUCGAGAUAGCCAGAGGGUCAGGAGAGAAUGGGGGAGGAGGCGGUCAGGCUGCUGAGGAAACACCACAGGCUGAACGGGUGGAAUUCUCGGGUGCCAA | 0.738
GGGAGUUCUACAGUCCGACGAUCGGAAGUAGCCCUGCACCUGCCAGUGAGCUCGCCAUUCACUGAUUGGAAGAGUGACCUGGCAUCUUGGAAAUCAUUGUGUGUCUUCAGGAGAAUGUGCAGUGUCUUGUAACUGGAAUUCUCGGGUGCCAA | 0.314
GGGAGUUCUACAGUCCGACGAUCCCCACAUAAAGAUAGUGCCCUAAGUUGUAAUCAGAACACUUGAGCAAGGAGUUAAAUGGAGGAGUAAACCUGGGAGUGCAAGAAAGCUCAAGAAACACUCAAGGGGAGGCUGGAAUUCUCGGGUGCCAA | 0.528
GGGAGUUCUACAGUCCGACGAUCGCCUAGGAGUGUGAGACUGAUGUUGCUGGACAGAAAGUGAUCCUUAGCCCAGUGUGUCAGCGUCCAUUGUUACUCAUCACUGCAUUGUUGGGCAAUUAGUUUGUAAUUUGUGGAAUUCUCGGGUGCCAA | 0.436
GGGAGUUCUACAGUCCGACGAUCUGUCUUAGAACCCUCAUUGCUCAGACCUGAAGGCUACUUCUAGGAGCAUGAAGUUUGAGUUUUGUGUUUUUCCAAAGGAUACUUCCUUGGCCCUUUUUCUUUAUUGACUAUGGAAUUCUCGGGUGCCAA | 0.348
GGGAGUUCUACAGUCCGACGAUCUGGAAUGGAAAGAAUGUGGGAUUUGGAGUCAGACAAGCCUGAGUCCAGUUCCCCGUUUAGAACUCAUUAGCUGUGUGACUCUGGGUGAGUCCCUUAACCCCUCUGAGCCCUGGAAUUCUCGGGUGCCAA | 0.309
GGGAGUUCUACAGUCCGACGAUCUAUUAAAGUAUAGAUGUAUGUCUUAAAAUGUGGGUGAUAGGAAUUUUAAAGAUUUAUAUAAUGCAUCAAAAGCCUUAGAAUAAGAAAAGCUUUUUUUAAAUUGCUUUAUCUGGAAUUCUCGGGUGCCAA | 1.52
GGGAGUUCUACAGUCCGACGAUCGCGCGCGUGUGUGUGUGCUUCACCUUGAUUGAGUGGCAUUGGCUCACAUGACCCAGGAGAUUCCCAGACUCUGUUAGUAGUGUCUAGGAACUUGUGUUCCAGCUGAGGAGUGGAAUUCUCGGGUGCCAA | 0.641
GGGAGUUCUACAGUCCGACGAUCGACCAGGACGGGUAGAGGCCUCUGCUAAAGAGCCCGGAUGCAGCGUCUUCCGUGGGACUGUCCCCAAGGCUGAGGCUCCUGCCAAGUCCUAGGGGCCUCUGUACCUGCCCUGGAAUUCUCGGGUGCCAA | 0.243

Block 3 — technique: RNA Bind-n-Seq; form: RNA; medium: in vitro; concentration: 100 nM; relative to: input RNA pool; reading: higher = stronger binding
Target: RING finger protein unkempt homolog, zinc fingers 1-6, SBP tag (UNK, Homo sapiens, UniProt Q9C0B0, residues 30-357)
Chain of UniProt Q9C0B0 (30-357, looked up): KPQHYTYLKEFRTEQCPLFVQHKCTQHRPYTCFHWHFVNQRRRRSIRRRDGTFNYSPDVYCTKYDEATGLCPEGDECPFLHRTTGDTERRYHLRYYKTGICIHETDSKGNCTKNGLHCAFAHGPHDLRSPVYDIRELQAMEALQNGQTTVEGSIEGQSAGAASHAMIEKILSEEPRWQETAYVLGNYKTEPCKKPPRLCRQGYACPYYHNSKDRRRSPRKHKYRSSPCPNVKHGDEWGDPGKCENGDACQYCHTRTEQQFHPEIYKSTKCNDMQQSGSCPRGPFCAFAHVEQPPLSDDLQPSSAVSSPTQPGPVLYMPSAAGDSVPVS
Notes: RNA with constant flanks, vertebrate orthologous sites, ends assumed
Oligonucleotide | bound/input enrichment [ratio]
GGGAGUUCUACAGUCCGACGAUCGGAGAUAAUGAAUAUUAAAGAAACAUUCUCGUCUUCCUUUACCUUUUGUCCCCUUAUACCUAGUCUACUUUUUAAAUUUUCAGACUUCACUGCUUUUUGAAUUCAUAAUUCUAAUUUUCACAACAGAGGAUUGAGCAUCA | 1.66
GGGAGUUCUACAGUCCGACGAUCGUUGUGACCCAUUCAACAUCCAUAAGAAGCUGGCCAAAAAAAACCUGCACGUCAUUGACUUGGAUGAUGCCACUUUUCUGAGUGCAAAAUUCGGAAGGCAGCUGGUGCCUGGUUGGAAGCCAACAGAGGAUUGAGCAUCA | 0.361
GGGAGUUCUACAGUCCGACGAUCCAAUUCAAUGGUCGAGGGUUCCGAACUCAAAAAGGUUCGCUCCAACUCCAGGAUUUACCAUAGGUACUUUUUACUGGAUGCUGACAUGCAGAGCCUGAGGUGGGAACCAUCUAAGAAGGACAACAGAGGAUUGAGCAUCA | 0.152
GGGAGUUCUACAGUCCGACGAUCAGCUUCUGGUGACAUUUGGCCCGGCCUUUCAGCAUAUGAUAACAGUCCAAGGUCACCCCAUAGUCCUUCUAUUGCUUCCCCACCUAGUCAGAGUUCGUCUUGCUCUGAUGCGCCCUUACUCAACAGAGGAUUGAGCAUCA | 0.839
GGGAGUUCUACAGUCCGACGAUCGUGUUUUGGUACUACUCGAUGUACCAAUACUCAUCCUUUUUUCAUUAUACCAACUGUCGCUAGAAGUAGGAGUUUAAUAUUUUUAAAAAUUUUACAUUGCUGUAUAUUCAAAAUUUUAAACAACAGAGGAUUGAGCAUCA | 0.823
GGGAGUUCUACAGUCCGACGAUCAAGUUCCCCCAUUGUCACUGAGAACCACCAAAUCUGACUUUUACAUUUGGUCUCAGAAUUUAGGUUCCUGCCCUGUUGGUUUUUUUUUUUUUUUUUUAAACAGUUUUCAAAAGUUCUUAACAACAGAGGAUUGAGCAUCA | 1.4
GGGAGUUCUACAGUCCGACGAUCAGGGAUGACCCCCAAUCCCACCUCUGUUUAUUCUGUAAACUACAACCUGUAAAUAACGUUUAGCAUUCCUAUUGUAACAAAAUUAAUUUUUAUGAAAUAAAUUAUAUUUCCUAGUCUAAUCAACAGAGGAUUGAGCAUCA | 1.5
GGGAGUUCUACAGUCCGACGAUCUAUCUUUAGGAUGAAGCUCUUACAUCAGGUGUCACGAGUUUGGAAAACAGAUGGCUUGUCUAGUUGUUCUUAUAAAUUACUGUCUGUGGAACACAAACCUUUGUAUAUCAACAUCACGGUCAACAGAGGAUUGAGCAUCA | 0.574

Block 4 — technique: competition protein-binding microarray; form: double-stranded DNA, one strand shown; medium: in vitro; concentration: 2 µM; with: Cbf1 competitor, 0.05 µM; reading: higher = stronger binding
Target: Phosphate system positive regulatory protein PHO4, full length, GST-tagged (PHO4, Saccharomyces cerevisiae, UniProt P07270, residues 1-312)
Notes: whole 60-bp probe, lowest competitor level
Residues (chain): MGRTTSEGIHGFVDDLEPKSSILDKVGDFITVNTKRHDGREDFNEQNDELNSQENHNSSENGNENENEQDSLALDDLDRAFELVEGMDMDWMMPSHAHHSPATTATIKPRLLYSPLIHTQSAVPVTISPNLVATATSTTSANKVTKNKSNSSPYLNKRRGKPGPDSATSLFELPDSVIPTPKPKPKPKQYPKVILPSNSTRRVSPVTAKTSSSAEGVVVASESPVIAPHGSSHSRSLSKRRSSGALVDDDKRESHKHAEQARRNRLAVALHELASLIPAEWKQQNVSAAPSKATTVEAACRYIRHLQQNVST
Oligonucleotide | fluorescence intensity
AGTGCGAACTACTGTTACGTGTGAATTGTAAAGGCGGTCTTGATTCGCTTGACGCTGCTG | 5250 a.u.
CATACCCAACCTTGTCACTGGACTTAAGATATTTGTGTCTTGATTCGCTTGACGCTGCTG | 3200 a.u.
TCTCTTCTTGGTACCGGCGTGATGGATTTGAAGCTAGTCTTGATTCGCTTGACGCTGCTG | 5120 a.u.
CTTTTTGGAAACGGCCACGTCTTTTGACAGATTTAGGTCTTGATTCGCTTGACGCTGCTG | 6110 a.u.
TCAAGCAGAAGAAAGCACGTGGCCGAACGCTTACCTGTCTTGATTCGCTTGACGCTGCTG | 16600 a.u.
CCTTTGTCTGCTGTGTATGTGATATGGAAAACTAACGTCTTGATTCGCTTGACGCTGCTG | 5910 a.u.
AGAAACGGCATCTCTCACCTGATTGTTCTCAAGATTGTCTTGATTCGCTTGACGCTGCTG | 3110 a.u.
CTTGTGTTGCTTGGAAGTGTGATGGATACCCATTGTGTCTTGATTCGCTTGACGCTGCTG | 5420 a.u.
TGCGCAACAACTTGAAGAGTGGGTGTATGTCTAGAAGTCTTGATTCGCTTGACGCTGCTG | 4940 a.u.
CCGATAACTCTTTGGAACGTGTTTCGAAGGAGTTGGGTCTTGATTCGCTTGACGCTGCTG | 12800 a.u.
ATTTTTTGATATCCACACGTTATTGAGCTCATTGACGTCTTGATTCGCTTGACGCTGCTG | 9080 a.u.
GGCATACCTGTAAATCACCTGCTAACAAGGAATTCCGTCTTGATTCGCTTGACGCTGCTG | 4550 a.u.
TTAATGAGTAATCCGCACGTTTTTAATCTAGCTAATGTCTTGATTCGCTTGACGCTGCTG | 13900 a.u.
AGTTACCCAGCCGCCCTCGTGCTTTGTAGTGCCATCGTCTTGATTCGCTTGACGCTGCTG | 14800 a.u.
TTCAACCTTCCCTAACACATGAAACTATTATTGGTTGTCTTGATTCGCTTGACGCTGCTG | 5290 a.u.
TCGGATTACTTTACCCACGTGCGATATCATCAATTAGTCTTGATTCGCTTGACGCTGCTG | 17500 a.u.
CTTGAGCGAAGCCGTCACATGGACCGGGAAATGGGTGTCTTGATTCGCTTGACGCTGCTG | 9530 a.u.
CAGGAACCCATAAGTCAGCTGAGCCTGTGTCTAACAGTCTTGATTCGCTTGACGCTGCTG | 3500 a.u.
